Measurements from different studies.
Compare with care: the assays were run in different laboratories.
Cell line: NCI-H322M

COc1cc(CNC(=O)C[C@H](C)CCC=C(C)C)ccc1OCc1cn(-c2ccccc2Cl)nn1
growth percent (SRB; 10 µM, 48 h): 91.3%

CCC(=C(c1ccc(Cl)cc1)c1ccc(OCCCN(C)C)cc1)c1ccc(OC)cc1
GI50 (cell growth or viability, SRB): 6.43 µM

CC/C=C\C/C=C\C/C=C\C/C=C\C/C=C\C/C=C\CCC(=O)Nc1ccn(C2OC(CO)C(O)C2(F)F)c(=O)n1 (stereo not drawn)
TGI (NCI60 screen): 19 µM

CC(Cc1ccc(Cl)cc1)=C(c1ccc(Cl)cc1)c1ccc(OCCN(C)C)cc1
GI50 (cell growth or viability, SRB): 5.03 µM

CC(=O)c1cccc(NC2C(N)C(NC(=O)N(C)C)(C(C)O)C(O)C2(O)COC(=O)c2c(C)cccc2O)c1 (stereo not drawn)
GI50 (cell growth or viability, SRB): 0.016 µM

COc1cc(CNC(=O)C[C@H](C)CCC=C(C)C)ccc1OCc1cn(-c2cccc([N+](=O)[O-])c2)nn1
growth percent (SRB; 10 µM, 48 h): 103%

CC(=O)OCC1(O)C(Nc2cccc(C(C)=O)c2)C(N)C(NC(=O)N(C)C)(C(C)OC(C)=O)C1(C)O (stereo not drawn)
GI50 (cell growth or viability, SRB): 0.48 µM

COc1cc(CNC(=O)C[C@H](C)CCC=C(C)C)ccc1OCc1cn(-c2ccccc2)nn1
growth percent (SRB; 10 µM, 48 h): 107%

CC(=O)OC[C@H]1O[C@@H](Sc2sc(C(=O)c3ccc(Br)cc3)c(N)c2-c2nc3ccccc3s2)[C@H](OC(C)=O)[C@@H](OC(C)=O)[C@@H]1OC(C)=O
growth (SRB; 10 µM, 48 h; baseline: untreated): 83.5%

Excerpt of the above:
CCC(=C(c1ccc(Cl)cc1)c1ccc(OCCCN(C)C)cc1)c1ccc(OC)cc1
GI50 (cell growth or viability, SRB): 6.43 µM
